Experimental data of several laboratories.
Each numbered part is a random draw from the data of one study; scales do not carry over between parts.

Study 1
Target: Histone acetyltransferase KAT6A, both winged helices, GST fusion (KAT6A, Homo sapiens, UniProt Q92794, residues 1-181)
Method: protein binding microarray
Molecule type: double-stranded DNA, one strand shown
Matrix: in vitro
Concentration: not given
Notes: 8-mer, flanks averaged, mean of 2 arrays, mostly near background
Reference: not given
Reading: higher = stronger binding
Target sequence (chain): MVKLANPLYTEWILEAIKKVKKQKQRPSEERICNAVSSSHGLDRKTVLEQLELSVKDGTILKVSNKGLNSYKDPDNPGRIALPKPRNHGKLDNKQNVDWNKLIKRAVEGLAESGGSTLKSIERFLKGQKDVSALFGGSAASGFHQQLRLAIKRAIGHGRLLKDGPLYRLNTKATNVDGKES
The E-score of `AACAACCA` is reported as -0.164.
`CCACCTGC` has an E-score of -0.129.
`CCGTGATA` gave an E-score of 0.174.
`CCCGTGGA` has an E-score of 0.25.
`ACCTTAGT` gave an E-score of -0.179.
`CCTGACCC` has an E-score of 0.0193.
`ATAGGCGG` has an E-score of 0.217.
`ATAACATC` has an E-score of -0.063.
`CGAGGCGA` gave an E-score of -0.0866.
`GTGTATAA` gave an E-score of -0.0461.
`ATGACCGC` gave an E-score of 0.203.
`GGCCCCAA` gave an E-score of 0.0226.
For `AGAGTGTC`, the E-score was -0.113.
For `AGGACCAT`, the E-score was -0.0935.
For `AGTCTCCG`, the E-score was 0.195.
The E-score of `AATGGCAT` is reported as -0.0156.
For `ACGAATGA`, the E-score was -0.0576.
For `TTGGTAAA`, the E-score was -0.0131.
The E-score of `CTGGAGCC` is reported as 0.0336.
`ACGGAGAC` has an E-score of 0.238.
For `AATCTTGC`, the E-score was -0.0888.
With `CGCGGCCG` the E-score was 0.409.
With `GCCACAAC` the E-score was 0.0238.

Study 2
Target: RNA binding protein fox-1 homolog 2, RRM domain, GST-SBP tag (RBFOX2, Homo sapiens, UniProt O43251-10, residues 100-194)
Method: RNA Bind-n-Seq
Molecule type: RNA
Matrix: in vitro
Concentration: 365 nM
Notes: natural RNA segment, single round, ends assumed
Reference: no-protein control
Reading: higher = stronger binding
All sequences stand within: GGGAGUUCUACAGUCCGACGAUC … UGGAAUUCUCGGGUGCCAA
Construct (chain): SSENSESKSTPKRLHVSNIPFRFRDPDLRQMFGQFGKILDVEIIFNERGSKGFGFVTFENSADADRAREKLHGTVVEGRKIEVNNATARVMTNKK
Under “RBNS enrichment (R)”, `GAUCUAUUGCAGAUAUUUGAUGUAGUUUUCUUUUUUAAAUUAAUCAGAAACCCCACUUCCAUUGUAUUGUCUGACACAUGCUCUCAAUAUAUAAUAAAUGGGAAAUGUCG` is recorded as 0.411.
Under “RBNS enrichment (R)”, `GAAACCCUUCACACCCCAGGCCCUUCAGGAACUGGGGCCUUGCCUUGCAGCCACAUGGCCCCAUCCCAGUUGGGGAAGCCAGGUGAGCUCUGACCCUUGGGCCUGGGCCU` is recorded as 0.747.
`UGCCACAGGAAAACAGUGGUAGCUUAGAGAGGGCUCAGAUCCCUGGGUGCCAGUUUUUUAAUCACUAUAGCCCUUGGGAAGGCUUGGGCUAUUUACUGGGCGGUAAAAGG` — result for “RBNS enrichment (R)”: 0.328.
For `ACCACAGGACUGCAGGGUGCACAACUCCCCUGCCAAGGAAAACCAUGCAGUCCUCCCCUCCCUGGUCUCCUGCUUCAGCUCUGUACAACGAGGGCAAAGAUGCUAAAUCU`, “RBNS enrichment (R)” read 0.398.
`AUUGGGGUCUACCAGCGUGCAUUCCAUUUCCCACUGACCAUGCAGGUGCACGUCGCGGAAAUACUGGUUUAACUACUAGUGUGUUACUGCCUCAUUUAUCUACAUAACAU` — result for “RBNS enrichment (R)”: 0.319.
Under “RBNS enrichment (R)”, `UGUAAAAAACAAAAGGCCUUAUGUGAUCUGUAUCAUAGUUAAUAAAUGAAUCUUGUAAAAAACCAAACCUGAGAGAAGUGAAGGGGGGCCUCCUCCUUACCGGGCCAGUG` is recorded as 0.579.
`AGCACGAGGCCUCAGGUCGGCCCUGUGGCGGGUAGGCAGGAAGGACUGUCCCAGACGAGGGGCUUCCUCUAGAGUCUCACUGCUGGGGAGGAGAGGACUGGGCCUGAUGG`: “RBNS enrichment (R)” 0.7.
Under “RBNS enrichment (R)”, `UUAAAUUUCUGUUUACAUUGAAAGCUGUUCAUUCAUGGCGCCCCCCCCCCCCCAAUCAUAAGACCAAAGAUGACCAAAUAAUAUGGUAGACUCUGAUUACAGUCUGACCU` is recorded as 0.354.
`AUAUUUGCUGCAUUUUUUUCCGUAUAUAUAACAUGUCUUCUUUCAGAAUGGGAAUAUAUGUGUGCCUCCCAACAUUUACUGUUAAAGUGUGUUAUCUUUAUAUGUCAAAC`: “RBNS enrichment (R)” 2.2.
`UUAAGUACCAAAAGGCUAUGCUGUAUGAAUUUCAGAAAUGGACUGAAAAAAUGGAGAGCAGUGUAAUAGACACACACUACAUCGGAAGAACUGACUUCUGAAACGAAGAG` — result for “RBNS enrichment (R)”: 0.67.
`AACACCUUAACAGUCACCACUGUGCUCAACCAGACAGAUAGUGAAACAGCUUUCUGGGUAAUUCACCAAUUUCCUUUAAAACAUAAGCUACCUGAAUGGAGAAUACAUCU`: “RBNS enrichment (R)” 0.198.
`GAAGAGGCUCCUCUUCUCAGUGUUUCCCAAAGGGGCGGCUCUUGUGGUUUCAAAAUCUCUGGCACCAUCUUGACCUCUUGGCUCUCUCUGCACUUUGCCCCCUGUCUCAA`: “RBNS enrichment (R)” 0.542.

Study 3
Target: RING finger protein unkempt homolog, zinc fingers 1-6, GST-SBP tag (UNK, Homo sapiens, UniProt Q9C0B0, residues 30-357)
Method: RNA Bind-n-Seq
Molecule type: RNA
Matrix: in vitro
Concentration: not given
Notes: RNA with constant flanks, ends assumed
Reference: input RNA pool
Reading: higher = stronger binding
All sequences stand within: GGGAGUUCUACAGUCCGACGAUC … CAACAGAGGAUUGAGCAUCA
Target sequence (chain): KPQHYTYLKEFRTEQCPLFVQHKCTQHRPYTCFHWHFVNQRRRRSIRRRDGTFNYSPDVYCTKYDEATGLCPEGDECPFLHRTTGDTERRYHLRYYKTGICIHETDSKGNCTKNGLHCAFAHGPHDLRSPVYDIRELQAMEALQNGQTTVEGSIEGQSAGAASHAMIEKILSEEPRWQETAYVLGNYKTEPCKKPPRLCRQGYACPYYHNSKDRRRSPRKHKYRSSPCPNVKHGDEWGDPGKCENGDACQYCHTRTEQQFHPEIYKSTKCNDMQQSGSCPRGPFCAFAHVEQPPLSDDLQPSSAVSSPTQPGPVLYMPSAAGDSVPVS
`AAAAUUGGUAUCGUUGGAUUGCCAAAUGUUGGGAAGUCUACCUUCUUCAAUGUAUUAACCAACCGUCAGGCUUCAGCAGAAAACUUCCCAUUCUGCACUAUUGAUCCUAAUGAGAGCAGA` has a bound/input enrichment of 0.2 ratio.
The bound/input enrichment of `GAGUACAUCAAACUCAACCAGCAAAAAACAGCAGAAGAAGAAAAUCCAGAACAUGCCGAAAUUCAGAAGAUGAUGGAUUCCCUCUUCUUAAAAUUGGAUGCCCUCUCAAACUUCCACUUU` is reported as 0.18 ratio.
`AAUAAAUUGGAAUUUAAAAAUAUCGAUAUCACCAUGAUUUAAUCCAGAUCUGGGAUUAUGCCGCUAAACAUUGUGAUGAUUAUUAUUUAAAACCAUUAUUUAAUAAGAGUAAAAAUAUGU` has a bound/input enrichment of 0.668 ratio.
For `UACUGUACCUCCACCCUGCGCCACUUCUUGCCUCUACUGGAAAGAAGUCAAGGAGAAGAUACCGAAGACGACCACAGGGCAGAGCUGUUGAAGCAGCUGGGGGACUACAGGUUCUCUGGA`, the bound/input enrichment was 0.0917 ratio.
With `ACGAGCAGGCCCGGACCUCGAGACCUAAAGCUGGGGAUCCCAAGUCCGUUCUACAGCCCGAGAUCACUAUGUGGCCAUGGAAUCCUCGGGCGAUCCCUGUGGACGCCACCUCACUCCGGG` the bound/input enrichment was 0.0483 ratio.
The bound/input enrichment of `CGGAUCUUUGGUGAAGUGGCCAGGUCUACUGACUCAAAGUCCAUGAAAGUGGUGAGCCUGUUCCGCGAGCAGCCCUUGGCCAAGAAGAAAGAGACUUAUGACUGGUAUCCAAAUCACAAC` is reported as 0.0686 ratio.
With `UCCUUGGACCCCAGUCAUAUAGGUGACCUGCAAAAAGCAGACACCAGUAGUCAAGGUGCUUCCGUGUUUCUCUCAAAGGACUACGAAAUAGAAAAUCAAAAUCCCCUGGCCUCUCCUACG` the bound/input enrichment was 1 ratio.
The bound/input enrichment of `UCUAGAAUGUCUUCAACUAAAUCAAGUGGAAGUGAAUCUGAUAGAUCAGAAAGACCUGUAUCCGUACGCCAGUCAACUUUCAUCAAAGAAGCUCCAAGCCCAACCUUAAGAAGAAAAUUG` is reported as 0.212 ratio.
The bound/input enrichment of `UCCUUUCAGCGGCGCGCGGCUGCAAGAUGGCGGUGCAGAUUUCCAAGAAGAGGAAGUUUGCCGCUGAUGGCAUCUUCAAAGCUGAGCUGAAUGAAUUUCUCACUCGGGAGCUGGCUGAAG` is reported as 0.0895 ratio.
For `GUGCUUCAGGUAGAUUCUGGUGCUAAUGCCACUGCCACAGCUCAGUGGUUUGGGGGCAAUAUCCGUGCUCCCUUCGAGGAUGCCUGCCCUCCUGAGGUGGAUUUUCUCAAGCAAGAUUGC`, the bound/input enrichment was 0.109 ratio.
With `CAACAAGCUGGCCAUGAUGAAGGUGUUCUGGAUCGUCUUGUGGACAGGAGGGAACGGCCACCCGAAGGUGGCCGAACUAAUUCCAAUAACAACAACAGCAAUCCAUGUUCAGAACAAGAU` the bound/input enrichment was 0.0842 ratio.

Study 4
Target: Ras GTPase-activating protein-binding protein 1, full length (G3BP1, Homo sapiens, UniProt Q13283)
Chain of UniProt Q13283 (whole entry, looked up): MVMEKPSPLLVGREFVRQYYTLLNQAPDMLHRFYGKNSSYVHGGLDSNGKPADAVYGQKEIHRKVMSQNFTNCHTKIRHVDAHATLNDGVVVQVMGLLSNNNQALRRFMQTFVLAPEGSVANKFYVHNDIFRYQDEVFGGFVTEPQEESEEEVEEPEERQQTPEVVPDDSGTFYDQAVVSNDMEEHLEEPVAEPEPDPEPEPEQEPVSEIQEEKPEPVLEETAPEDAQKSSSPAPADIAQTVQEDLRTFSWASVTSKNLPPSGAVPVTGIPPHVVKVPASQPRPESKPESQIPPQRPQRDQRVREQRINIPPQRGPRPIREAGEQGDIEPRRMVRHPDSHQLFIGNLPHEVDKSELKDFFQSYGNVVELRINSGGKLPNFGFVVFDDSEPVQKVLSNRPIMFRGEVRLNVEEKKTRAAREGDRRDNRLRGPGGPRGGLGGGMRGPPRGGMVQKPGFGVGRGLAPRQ
Method: RNA Bind-n-Seq
Molecule type: RNA
Matrix: in vitro
Concentration: 200 nM
Notes: whole 134-nt RNA, ends assumed
With: 150 mM KCl
Reference: input library
Reading: higher = stronger binding
All sequences stand within: GGGAGUUCUACAGUCCGACGAUC … UGGAAUUCUCGGGUGUCAAGG
For `UUCGACGGCGCCGGGCGAGUGGCUGUUGAGCGGCGCCGCGGGAGUUCCGCAGGUUUCCCGUGUUCGCAGCGGAGCCGGAGGCCAGCUGAA`, the log2 enrichment was -2.37.
For `ACCAUGCAGGUGGGCAUCUUUGGGAAGUGGGGCAAGGGGGGGAUAGGGAGGGGGGUAACACUUAAAGAACAGGUGGUCCCAGGUCGUUUC`, the log2 enrichment was 1.45.
`GCAGGAAGUAAAAACAAAUGGAAAUGCUUCGGAUAGUGGCAGGGGUGGGGGUUGCUAAGAAAAGGGUGGGAUGGGAGUGGGUAAAGAGUU` gave a log2 enrichment of 0.493.
`AAGUCCUGUGCUACACAUCGUAUGUACCGAAUCGGGUGGGUUUUUGGGUUUUUGGGAAAGUAUUAUGUUACGCCGUUCGGAUCUGCACUU` gave a log2 enrichment of -0.292.
The log2 enrichment of `GCAGGAAGUAAAAACAAAUGGAAAUGCUUCGGAUAGUGGCAGGGGUGGGGGUUGCUAAGGAAAGGGUGGGAUGGGAGAGGGUAAAGAGUU` is reported as 1.37.
With `AAGUCCUGUGCUACACAUCGUAUGUACCGAAUCGGGAAAAGGAAAAGGGAAAAGGGAAAGUAUUAUGUUACGCCGUUCGGAUCUGCACUU` the log2 enrichment was -0.796.
`UAACUUUAGAGGAGGAUCUGACGGAUAUGGCAGUGGACGUGGAUUUGGGGAUGGCUAUAAUGGGUAUGGAGGAGGACCUGGAGGUGGCAA` has a log2 enrichment of 0.383.
`GAAAUUGAACCAGCAGCGAUGAAAGCAGCAGCUGCUGCCCCUGCCUCAGAGGAUGAGGACGAUGAGGAUGACGAAGAUGAUGAGGAUGAC` gave a log2 enrichment of -0.421.
`UCAAGUCCUGUGCUACACAUCGUAUGUACCGAAUCGGCCGGGGCCGGGGCCGGGAAAGUAUUAUGUUACGCCGUUCGGAUCUGCACUUCC` gave a log2 enrichment of -0.759.
The log2 enrichment of `UGGGAGGUGGAUUUUGUUUAUUUUUUUAGCUCAUUUCCAGGGGUGGGAAUUUUUUUUUAAUAUGUGACAUGAAUAAAGUUGUUUUUGAAA` is reported as 0.0727.
`AGUCCUGUGCUACACAUCGUAUGUACCGAAUCGGGAGGGAAAAAGGGAAAAAAAGGGAAAGUAUUAUGUUACGCCGUUCGGAUCUGCACU` gave a log2 enrichment of -0.215.
`UAACUUUAGAGGAGGAUCUGAUGGAUAUGGCAGUGGACGUGGAUUUGGGGAUGGCUAUAAUCGGUAUGGAGGAGGACCUGGAGGUGGCAA` has a log2 enrichment of 0.144.
The log2 enrichment of `CUGUGCUACACAUCGUAUGUACCGAAUCGGGAAAAAAAGGGAAAAAAAGGGGAAAAAAAGGAAAGUAUUAUGUUACGCCGUUCGGAUCUG` is reported as -0.703.
The log2 enrichment of `CUGUGCUACACAUCGUAUGUACCGAAUCGGGGAAAAAGGGGAAAAAAAGGGGAAAAAGGGGAAAGUAUUAUGUUACGCCGUUCGGAUCUG` is reported as -0.207.

A few entries again (study 1):
`ACGGAGAC` has an E-score of 0.238.
The E-score of `AACAACCA` is reported as -0.164.
`ATAGGCGG` has an E-score of 0.217.
